Measured values pooled from the literature.
Lines come from different studies, so protocols differ. ± marks the error that the study gave.
Target: Cytochrome P450 2C19 (CYP2C19, Homo sapiens, UniProt P33261)
UniProt P33261, sequence (whole entry, looked up): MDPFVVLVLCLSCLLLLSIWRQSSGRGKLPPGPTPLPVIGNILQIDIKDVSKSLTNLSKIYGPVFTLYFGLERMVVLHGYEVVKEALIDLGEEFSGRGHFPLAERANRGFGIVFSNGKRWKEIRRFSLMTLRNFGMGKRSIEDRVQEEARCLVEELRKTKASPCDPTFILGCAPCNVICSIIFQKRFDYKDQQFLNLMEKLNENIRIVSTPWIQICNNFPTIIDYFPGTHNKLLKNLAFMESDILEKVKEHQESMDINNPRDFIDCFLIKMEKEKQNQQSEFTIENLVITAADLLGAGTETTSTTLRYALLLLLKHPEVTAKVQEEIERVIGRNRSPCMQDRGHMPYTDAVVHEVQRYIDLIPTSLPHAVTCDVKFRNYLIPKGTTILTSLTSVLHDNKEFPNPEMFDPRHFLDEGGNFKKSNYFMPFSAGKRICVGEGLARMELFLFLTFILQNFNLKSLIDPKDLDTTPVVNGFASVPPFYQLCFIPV

C=CC(=O)N(C)CCOc1c(N)ncnc1-c1cc(F)cc(NC(=O)c2ccc(C3CC3)cc2F)c1C
fraction metabolised by CYP (recombinant human CYP): 1%

COc1cc(O)c(CC=C(C)C)c2c1C(=O)CC(c1ccc(O)cc1)O2 (centres unmarked)
inhibition (enzyme activity, inhibitor; human liver microsomes; 10 µM, pH 7.4, together with: (S)-mephenytoin): > 90%

N#C[C@H](C[C@@H]1CCCNC1=O)NC(=O)[C@H](CC1CC1)NC(=O)c1cc2cccc(Cl)c2[nH]1
half-life (NADPH metabolic stability; 2 µM, pH 7.4): > 0.167 h

CC(C)=CCc1c(O)cc(O)c2c1O[C@H](c1ccc(O)cc1)CC2=O
inhibition (1 µM, pH 7.4): 43.8 ± 0.2%

COc1ccc2[nH]c([S+]([O-])Cc3ncc(C)c(OC)c3C)nc2c1 (centres unmarked)
AUClast increase (human, plasma; oral, 20 mg, together with: single dose encorafenib and binimetinib; reference: Day -7 probe alone): ~26%

COc1ccc2[nH]c([S+]([O-])Cc3ncc(C)c(OC)c3C)nc2c1 (centres unmarked)
Tmax (item: 5-hydroxyomeprazole; human healthy subjects, plasma; oral, alone, median, together with: midazolam): 4 h

COc1ccc2nc([S+]([O-])Cc3ncc(CO)c(OC)c3C)[nH]c2c1 (centres unmarked)
metabolite to parent Cmax ratio (human, plasma; oral, 20 mg omeprazole, probe alone Day -7; reference: 5-hydroxyomeprazole over omeprazole): 0.273

Cc1cccc(F)c1N1CCC(N2Cc3cn(CC(C)(F)F)nc3N(Cc3ccccc3C(F)(F)F)C2=O)CC1
omeprazole AUC increase (inhibitor; healthy male human; 100 mg, together with: omeprazole 20 mg single dose; reference: omeprazole alone): 1.9 fold

Excerpt of the above:
COc1ccc2[nH]c([S+]([O-])Cc3ncc(C)c(OC)c3C)nc2c1 (centres unmarked)
AUClast increase (human, plasma; oral, 20 mg, together with: single dose encorafenib and binimetinib; reference: Day -7 probe alone): ~26%
